Measurements from different studies.
Target: Calcium/calmodulin-dependent protein kinase type 1 (CAMK1, Homo sapiens, UniProt Q14012)

`CNC(=O)C[C@H](Cc1ccc(C#N)cc1)NC(=O)c1cc(-c2ccc(CN[C@H](C)c3ccc(C)cc3)o2)ccc1Cl`: “activity vs control” 126% (enzyme activity, inhibitor; 1 µM).
`Cc1ccc(C)c(-c2ccc3nc(NC(=O)C4CCCCC4)nn3c2)c1` gave a remaining activity of 75% (enzyme activity, Dundee kinase panel; 10 µM).
The remaining binding of `COc1cc(Nc2nccc(-c3cnn4nc(OC)ccc34)n2)cc(C(F)(F)F)c1` is reported as 71% (binding, competition with immobilised ligand; 1 µM).
The remaining activity of `Cc1cccc(-c2ccc3nc(NC(=O)C4CCCO4)nn3c2)c1` (stereo not shown) is reported as 74% (enzyme activity, Dundee kinase panel; 10 µM).
For `C=CC(=O)Nc1cccc(-c2cnc3[nH]cc(C(=O)NC(C)(C)C)c3n2)c1`, the inhibition was 4% (kinase activity; 0.1 µM).
`C=CC(=O)N1CCCC(n2c(=O)c3ncccc3n(Cc3ccc(Oc4ccccc4)cc3)c2=O)C1` (stereo not shown) gave a remaining binding of 100% (cell-free assay, competition with immobilised ligand; 1 µM).
Under “activity vs control”, `O=C(Cc1ccc(OCc2ccccc2)cc1)NC1(C(=O)O)CCN(C(=O)c2ccc(-c3cccc(Cl)c3)cc2)CC1` is recorded as 111% (enzyme activity, inhibitor; 10 µM).
With `Cc1ccc(-c2c(/C=C(\C#N)C(=O)NC(C)C)n(CCCO)c3ncnc(N)c23)cc1` the remaining binding was 100% (cell-free assay, competition with immobilised ligand; 1 µM).
For `C=CC(=O)N1CCc2ccc(-n3c(=O)ccc4cnc5ccc(-c6cnn(C)c6)cc5c43)cc21`, the remaining binding was 100% (KINOMEscan; 1 µM; baseline: DMSO control).
For `C=CC(=O)N1Cc2nc(-c3cc(-c4cc(Cl)cnc4Cl)c(F)cc3F)n(-c3ccncn3)c2C1`, the inhibition was -0.3% (cell-free assay; 1 µM).
`O=C(O)CCC(=O)c1cccc(NS(=O)(=O)c2c[nH]c3ncccc23)c1` gave a remaining activity of 98% (kinase activity, radiometric; 10 µM).
`CCN1CCN(Cc2ccc(C(=O)Nc3ccc(C)c(NCc4cnc5[nH]ccc5c4OC)c3)cc2C(F)(F)F)CC1` gave a remaining binding of 95% (binding, competition with immobilised ligand; 1 µM).
With `C[C@H]1CN(C(=O)c2cn(-c3ccnc(N)n3)c3cc(C#CC4(O)CCCCC4)ccc23)CCN1` the inhibition was 90% (enzyme activity, inhibitor; 1 µM).
`Cc1cnc2nc1Nc1cccc(c1)COC/C=C/COCc1cc(ccc1OCCN1CCOCC1)N2` gave a remaining binding of 68% (binding; 0.1 µM).
`CNC1C[S+]2CC[S+]3CC[S+](C1)[Ru-4]321([N]=C=S)[n]2c3ccc(OC)cc3c3c4c(c5cc(F)c[n+]1c5c32)C(=O)NC4=O` (stereo not shown) gave a remaining binding of 93% (KinomeScan; 0.1 µM; baseline: untreated).
With `Nc1ncc(-c2cc(-c3cnn(CC(F)(F)F)c3)ncc2F)nc1C(=O)NC1CNCC(F)C1` (stereo not shown) the remaining activity was 74.5% (enzyme activity; 1 µM; baseline: DMSO control).
`NC(=O)C[C@H]1CCc2sc3ncnc(O[C@H]4CC[C@H](N5CCOCC5)CC4)c3c21` has an inhibition of 5% (enzyme activity, inhibitor; 10 µM).
`Cc1cccc(O[C@H]2CCC[C@@H](C(C)CNCc3ccncc3)C2)c1` (relative stereo) has an inhibition of -2% (enzyme activity; 10 µM).
`CN1CC[C@@H](COc2cnc(C#N)cc2-c2ccn3nc(NC(=O)C4CC4)cc3c2)C1` has an inhibition of 7% (enzyme activity, inhibitor; 1 µM).

A few entries again:
`CNC1C[S+]2CC[S+]3CC[S+](C1)[Ru-4]321([N]=C=S)[n]2c3ccc(OC)cc3c3c4c(c5cc(F)c[n+]1c5c32)C(=O)NC4=O` (stereo not shown) gave a remaining binding of 93% (KinomeScan; 0.1 µM; baseline: untreated).
With `Nc1ncc(-c2cc(-c3cnn(CC(F)(F)F)c3)ncc2F)nc1C(=O)NC1CNCC(F)C1` (stereo not shown) the remaining activity was 74.5% (enzyme activity; 1 µM; baseline: DMSO control).
`NC(=O)C[C@H]1CCc2sc3ncnc(O[C@H]4CC[C@H](N5CCOCC5)CC4)c3c21` has an inhibition of 5% (enzyme activity, inhibitor; 10 µM).
